Published values collected from several papers.
Numbered parts are unrelated; each lists some results of a single study.
Sequence of UniProt Q13237 (whole entry, looked up): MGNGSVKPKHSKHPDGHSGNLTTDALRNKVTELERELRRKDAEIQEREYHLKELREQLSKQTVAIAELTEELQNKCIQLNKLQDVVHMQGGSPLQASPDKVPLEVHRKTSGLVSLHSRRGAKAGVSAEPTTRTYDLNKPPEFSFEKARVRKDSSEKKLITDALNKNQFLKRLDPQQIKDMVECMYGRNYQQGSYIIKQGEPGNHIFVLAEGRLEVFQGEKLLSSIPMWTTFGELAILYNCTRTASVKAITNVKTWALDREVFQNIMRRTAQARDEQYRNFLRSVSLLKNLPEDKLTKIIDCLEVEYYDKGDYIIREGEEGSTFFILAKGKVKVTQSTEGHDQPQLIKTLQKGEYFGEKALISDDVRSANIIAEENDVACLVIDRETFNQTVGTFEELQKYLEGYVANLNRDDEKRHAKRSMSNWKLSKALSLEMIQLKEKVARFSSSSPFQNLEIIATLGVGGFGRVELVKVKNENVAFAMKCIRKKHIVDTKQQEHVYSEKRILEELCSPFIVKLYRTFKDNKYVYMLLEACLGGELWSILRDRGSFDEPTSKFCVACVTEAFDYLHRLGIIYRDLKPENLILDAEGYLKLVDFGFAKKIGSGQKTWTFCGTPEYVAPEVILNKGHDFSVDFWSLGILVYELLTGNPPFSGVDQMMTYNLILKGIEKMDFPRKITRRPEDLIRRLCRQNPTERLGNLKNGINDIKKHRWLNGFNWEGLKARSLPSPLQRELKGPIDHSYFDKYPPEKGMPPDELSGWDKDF
Sequence of UniProt Q8N568 (whole entry, looked up): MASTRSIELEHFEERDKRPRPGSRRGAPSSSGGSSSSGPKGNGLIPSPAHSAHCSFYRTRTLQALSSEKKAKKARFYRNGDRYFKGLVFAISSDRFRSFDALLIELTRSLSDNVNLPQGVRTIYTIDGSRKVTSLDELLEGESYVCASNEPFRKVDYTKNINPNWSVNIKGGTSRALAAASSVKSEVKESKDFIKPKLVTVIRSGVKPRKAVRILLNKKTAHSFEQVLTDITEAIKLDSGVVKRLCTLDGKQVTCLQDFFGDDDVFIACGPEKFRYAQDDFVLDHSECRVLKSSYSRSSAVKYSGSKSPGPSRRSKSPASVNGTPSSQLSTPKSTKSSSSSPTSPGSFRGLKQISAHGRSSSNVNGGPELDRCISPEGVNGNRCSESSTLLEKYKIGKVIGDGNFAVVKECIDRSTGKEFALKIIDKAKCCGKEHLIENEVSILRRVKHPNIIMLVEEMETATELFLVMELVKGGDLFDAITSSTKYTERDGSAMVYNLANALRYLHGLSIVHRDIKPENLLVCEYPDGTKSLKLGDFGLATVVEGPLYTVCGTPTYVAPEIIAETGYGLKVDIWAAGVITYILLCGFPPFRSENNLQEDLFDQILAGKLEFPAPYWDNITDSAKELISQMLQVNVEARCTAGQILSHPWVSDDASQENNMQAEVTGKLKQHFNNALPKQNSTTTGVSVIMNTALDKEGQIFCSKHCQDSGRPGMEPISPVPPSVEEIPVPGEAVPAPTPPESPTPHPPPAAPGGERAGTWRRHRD
Sequence of UniProt P32298 (whole entry, looked up): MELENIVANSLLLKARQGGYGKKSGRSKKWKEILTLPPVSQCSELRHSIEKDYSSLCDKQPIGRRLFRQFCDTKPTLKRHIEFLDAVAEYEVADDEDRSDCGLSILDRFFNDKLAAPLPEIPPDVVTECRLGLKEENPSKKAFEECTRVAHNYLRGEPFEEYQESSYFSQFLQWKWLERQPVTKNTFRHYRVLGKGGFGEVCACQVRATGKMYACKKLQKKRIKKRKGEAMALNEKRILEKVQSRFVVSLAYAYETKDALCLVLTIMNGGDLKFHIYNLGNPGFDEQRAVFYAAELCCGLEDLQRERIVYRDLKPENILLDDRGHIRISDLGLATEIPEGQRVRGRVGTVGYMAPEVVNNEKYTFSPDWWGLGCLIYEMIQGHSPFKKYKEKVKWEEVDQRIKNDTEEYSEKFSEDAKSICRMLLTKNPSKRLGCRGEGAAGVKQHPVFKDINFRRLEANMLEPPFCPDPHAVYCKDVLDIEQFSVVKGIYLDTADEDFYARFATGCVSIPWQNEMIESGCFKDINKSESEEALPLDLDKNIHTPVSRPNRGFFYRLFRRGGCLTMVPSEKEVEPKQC
Sequence of UniProt P08581 (whole entry, looked up): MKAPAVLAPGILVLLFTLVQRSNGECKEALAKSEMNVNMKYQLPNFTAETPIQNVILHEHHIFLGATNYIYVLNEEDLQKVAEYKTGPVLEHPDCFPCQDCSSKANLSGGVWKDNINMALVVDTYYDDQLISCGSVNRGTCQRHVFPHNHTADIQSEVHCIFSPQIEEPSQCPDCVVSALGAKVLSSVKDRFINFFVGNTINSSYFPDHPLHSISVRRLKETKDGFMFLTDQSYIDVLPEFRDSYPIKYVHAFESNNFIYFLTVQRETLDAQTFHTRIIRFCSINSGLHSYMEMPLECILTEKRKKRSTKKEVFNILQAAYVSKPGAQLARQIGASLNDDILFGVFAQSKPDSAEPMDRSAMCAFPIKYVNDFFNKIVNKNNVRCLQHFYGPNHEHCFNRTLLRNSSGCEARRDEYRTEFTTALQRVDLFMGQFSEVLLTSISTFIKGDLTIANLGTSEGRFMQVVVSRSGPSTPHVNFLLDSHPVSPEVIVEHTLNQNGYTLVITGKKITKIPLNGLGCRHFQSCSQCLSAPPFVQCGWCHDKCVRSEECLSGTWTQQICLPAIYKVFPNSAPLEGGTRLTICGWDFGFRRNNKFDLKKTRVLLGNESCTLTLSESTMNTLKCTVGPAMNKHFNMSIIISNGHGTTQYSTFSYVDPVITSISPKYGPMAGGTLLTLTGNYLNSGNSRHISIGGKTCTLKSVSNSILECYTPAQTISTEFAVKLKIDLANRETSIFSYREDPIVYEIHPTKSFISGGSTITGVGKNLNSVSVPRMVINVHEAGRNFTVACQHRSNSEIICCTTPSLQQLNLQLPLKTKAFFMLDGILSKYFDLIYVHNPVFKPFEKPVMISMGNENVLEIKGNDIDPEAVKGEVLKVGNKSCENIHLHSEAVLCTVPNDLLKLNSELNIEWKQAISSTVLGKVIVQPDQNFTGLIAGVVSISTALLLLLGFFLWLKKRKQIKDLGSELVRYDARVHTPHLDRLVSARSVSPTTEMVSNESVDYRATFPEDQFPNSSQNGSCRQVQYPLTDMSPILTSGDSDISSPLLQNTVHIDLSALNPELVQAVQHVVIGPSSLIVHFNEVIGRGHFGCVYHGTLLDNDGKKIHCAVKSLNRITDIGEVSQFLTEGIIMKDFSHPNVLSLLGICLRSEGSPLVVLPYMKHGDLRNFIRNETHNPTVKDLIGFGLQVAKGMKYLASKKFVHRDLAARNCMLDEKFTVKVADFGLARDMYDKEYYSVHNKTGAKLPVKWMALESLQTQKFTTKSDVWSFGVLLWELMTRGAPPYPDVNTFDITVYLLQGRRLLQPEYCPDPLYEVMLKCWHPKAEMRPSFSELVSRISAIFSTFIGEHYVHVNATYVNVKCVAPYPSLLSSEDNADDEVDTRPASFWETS
Sequence of UniProt P07333 (whole entry, looked up): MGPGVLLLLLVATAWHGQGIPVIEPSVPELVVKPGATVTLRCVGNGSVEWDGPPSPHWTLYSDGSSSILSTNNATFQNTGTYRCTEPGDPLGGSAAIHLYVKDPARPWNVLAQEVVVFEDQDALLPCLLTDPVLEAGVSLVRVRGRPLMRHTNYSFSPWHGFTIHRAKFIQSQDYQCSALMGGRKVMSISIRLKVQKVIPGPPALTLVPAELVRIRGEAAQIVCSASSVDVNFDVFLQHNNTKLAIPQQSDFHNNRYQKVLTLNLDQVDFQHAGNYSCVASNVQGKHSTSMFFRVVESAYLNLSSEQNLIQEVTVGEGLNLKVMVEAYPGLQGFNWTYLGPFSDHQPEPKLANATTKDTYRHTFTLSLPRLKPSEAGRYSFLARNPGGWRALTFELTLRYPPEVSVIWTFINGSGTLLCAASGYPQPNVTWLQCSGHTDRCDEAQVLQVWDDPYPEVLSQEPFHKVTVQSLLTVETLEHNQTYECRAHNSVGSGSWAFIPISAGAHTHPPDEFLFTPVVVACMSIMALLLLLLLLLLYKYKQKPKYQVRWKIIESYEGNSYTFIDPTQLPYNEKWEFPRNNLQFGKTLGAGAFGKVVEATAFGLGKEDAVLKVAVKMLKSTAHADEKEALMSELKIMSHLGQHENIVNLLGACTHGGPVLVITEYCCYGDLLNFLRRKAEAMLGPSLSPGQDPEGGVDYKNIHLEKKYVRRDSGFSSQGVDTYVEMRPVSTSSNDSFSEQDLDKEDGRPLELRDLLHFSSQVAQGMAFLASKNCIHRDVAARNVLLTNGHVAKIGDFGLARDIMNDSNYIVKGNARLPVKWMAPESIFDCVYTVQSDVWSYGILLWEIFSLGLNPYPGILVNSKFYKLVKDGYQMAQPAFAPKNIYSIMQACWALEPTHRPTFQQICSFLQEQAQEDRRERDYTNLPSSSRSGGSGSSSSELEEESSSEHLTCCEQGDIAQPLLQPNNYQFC

Study 1
SMILES: Oc1cccc(-c2nc(N3CCOCC3)c3oc4ncccc4c3n2)c1
Read-out: enzyme activity
Mode: inhibitor
Tested at: 0.5 µM
Baseline: control
Measurement: remaining activity
Rho-associated protein kinase 1 (ROCK1, Homo sapiens, UniProt Q13464): 94.9%
Serine/threonine-protein kinase PAK 3 (PAK3, Homo sapiens, UniProt O75914): 97.5%
Mitogen-activated protein kinase 1 (MAPK1, Homo sapiens, UniProt P28482): 89%
cGMP-dependent protein kinase 2 (PRKG2, Homo sapiens, UniProt Q13237): 89.2%
Serine/threonine-protein kinase DCLK2 (DCLK2, Homo sapiens, UniProt Q8N568): 102%
Hepatocyte growth factor receptor (MET, Homo sapiens, UniProt P08581): 97.8%
Dual specificity mitogen-activated protein kinase kinase 1 (MAP2K1, Homo sapiens, UniProt Q02750): 97.7%
Ribosomal protein S6 kinase alpha-4 (RPS6KA4, Homo sapiens, UniProt O75676): 104%
Serine/threonine-protein kinase PLK3 (PLK3, Homo sapiens, UniProt Q9H4B4): 94.6%
Tyrosine-protein kinase TXK (TXK, Homo sapiens, UniProt P42681): 94.8%
Cyclin-dependent kinase 9, with cyclin K (CDK9, Homo sapiens, UniProt P50750): 96%
Discoidin domain-containing receptor 2 (DDR2, Homo sapiens, UniProt Q16832): 94.6%
Myosin-IIIb (MYO3B, Homo sapiens, UniProt Q8WXR4): 81.3%
Cyclin-dependent kinase 1, with cyclin A (CDK1, Homo sapiens, UniProt P06493): 84.4%
Misshapen-like kinase 1 (MINK1, Homo sapiens, UniProt Q8N4C8): 96%
Calcium/calmodulin-dependent protein kinase type 1B (PNCK, Homo sapiens, UniProt Q6P2M8): 96.7%
Serine/threonine-protein kinase Nek3 (NEK3, Homo sapiens, UniProt P51956): 92.9%
MAP/microtubule affinity-regulating kinase 4 (MARK4, Homo sapiens, UniProt Q96L34): 93.4%
G protein-coupled receptor kinase 4 (GRK4, Homo sapiens, UniProt P32298): 102%

Study 2
SMILES: O=C(O)[C@H]1[C@H](Cn2nnc3ccccc3c2=O)CC[C@@H]1C(=O)c1ccc(OCCC2CCOCC2)cc1
Technique: competition with immobilised ligand
Tested at: 1 µM
Measurement: remaining binding
Macrophage colony-stimulating factor 1 receptor (CSF1R, Homo sapiens, UniProt P07333); cell-free assay: 81%
Cyclin-dependent kinase 15 (CDK15, Homo sapiens, UniProt Q96Q40); cell-free assay: 100%
Homeodomain-interacting protein kinase 3 (HIPK3, Homo sapiens, UniProt Q9H422); cell-free assay: 99%
Serine/threonine-protein kinase 38 (STK38, Homo sapiens, UniProt Q15208); cell-free assay: 88%
Serine/threonine-protein kinase 38-like (STK38L, Homo sapiens, UniProt Q9Y2H1); binding: 96%
Muscle, skeletal receptor tyrosine-protein kinase (MUSK, Homo sapiens, UniProt O15146); cell-free assay: 95%
Serine/threonine-protein kinase LATS1 (LATS1, Homo sapiens, UniProt O95835); cell-free assay: 84%
Serine/threonine-protein kinase Nek2 (NEK2, Homo sapiens, UniProt P51955); cell-free assay: 100%
Protein kinase C theta type (PRKCQ, Homo sapiens, UniProt Q04759); cell-free assay: 80%

Study 3
Species: mouse
Matrix: microsomes or S9
Tested at: 2 µM
Time: 0.5 h
Measurement: remaining compound
CC(C)CC1(C(=O)N2CCC(N(C)CC(=O)O)CC2)CCCC1: 82.9%
COC(C)C(C)C(=O)O[C@H]1Cc2cc3ccc(=O)oc3cc2OC1(C)C (stereo partly shown): 13.9%
CCOC(=O)N1CCN(C(=O)c2cn(C)c(=O)cc2OC)CC1: 97.3%
CC1(C)CC(NS(=O)(=O)c2cc(Cl)ccc2Cl)CC(C)(C)N1: 52.4%
COc1cc(-c2cc(NC(=O)C3CCCN(c4ncnc5c4nc4n5CCCCC4)C3)on2)cc(OC)c1OC (stereo not shown): 2.56%
O=C(CC(c1ccccc1)c1ccccc1)N1CCOCC1: 22.1%
Cc1cn(C)c(CC(=O)NCCCN2CCC(Cc3ccccc3)CC2)c1C(=O)O: 95.5%
CN(c1cccnn1)S(=O)(=O)c1c(Cl)ccc2scnc12: 92.6%

Study 4
Target: Beta-1 adrenergic receptor (ADRB1, Homo sapiens, UniProt P08588)
Sequence of UniProt P08588 (whole entry, looked up): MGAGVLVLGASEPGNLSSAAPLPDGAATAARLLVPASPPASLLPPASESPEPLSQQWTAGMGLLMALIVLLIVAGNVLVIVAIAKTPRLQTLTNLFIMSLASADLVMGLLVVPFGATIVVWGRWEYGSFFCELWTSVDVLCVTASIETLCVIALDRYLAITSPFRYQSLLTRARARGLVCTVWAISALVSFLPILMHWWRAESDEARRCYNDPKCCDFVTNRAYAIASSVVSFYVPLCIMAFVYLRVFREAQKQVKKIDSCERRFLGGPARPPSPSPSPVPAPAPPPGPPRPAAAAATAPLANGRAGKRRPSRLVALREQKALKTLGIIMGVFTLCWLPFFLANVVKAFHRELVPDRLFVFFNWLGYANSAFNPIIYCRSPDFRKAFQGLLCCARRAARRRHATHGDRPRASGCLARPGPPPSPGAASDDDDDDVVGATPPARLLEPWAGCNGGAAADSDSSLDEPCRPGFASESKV
Mode: antagonist
Measurement: IC50
CN(C)c1cccc(-c2nccc3c(=O)cc(N4CCOCC4)oc23)c1: ≥ 100 µM
COc1ccccc1N1CCN(C(=O)c2cc(Br)c[nH]2)CC1: ≥ 100 µM
Oc1cccc(-c2c3nc(c(-c4cccc(O)c4)c4ccc([nH]4)c(-c4cccc(O)c4)c4nc(c(-c5cccc(O)c5)c5ccc2[nH]5)CC4)C=C3)c1: ≥ 100 µM
COc1ccccc1-c1nccc2c(=O)cc(N(C)C)oc12: ≥ 100 µM
CC(C)(C)NCC(O)COc1ccccc1OCC1CCCO1 (stereo not shown): ≥ 100 µM
COc1ccccc1N1CCN(C(=O)C(C)CN)CC1 (stereo not shown): ≥ 100 µM
COc1ccc(CNCc2ccc(C)s2)cc1OCC(O)CN1CCCCC1 (stereo not shown): ≥ 100 µM

For quick reference, copied from above (study 3):
COC(C)C(C)C(=O)O[C@H]1Cc2cc3ccc(=O)oc3cc2OC1(C)C (stereo partly shown): 13.9%
CCOC(=O)N1CCN(C(=O)c2cn(C)c(=O)cc2OC)CC1: 97.3%
CC1(C)CC(NS(=O)(=O)c2cc(Cl)ccc2Cl)CC(C)(C)N1: 52.4%
COc1cc(-c2cc(NC(=O)C3CCCN(c4ncnc5c4nc4n5CCCCC4)C3)on2)cc(OC)c1OC (stereo not shown): 2.56%
O=C(CC(c1ccccc1)c1ccccc1)N1CCOCC1: 22.1%
Cc1cn(C)c(CC(=O)NCCCN2CCC(Cc3ccccc3)CC2)c1C(=O)O: 95.5%
CN(c1cccnn1)S(=O)(=O)c1c(Cl)ccc2scnc12: 92.6%
